Measurements gathered from unrelated publications.
Every numbered part comes from another study and shows a few of its results, in no order.

Sample 1 — method: RNA Bind-n-Seq; molecule type: RNA; sample: in vitro; tested at: 200 nM; notes: whole 134-nt RNA, ends assumed; added: 150 mM KCl; baseline: input library; direction: higher = stronger binding
Target: Ras GTPase-activating protein-binding protein 1, full length (G3BP1, Homo sapiens, UniProt Q13283)
UniProt Q13283, sequence (whole entry, looked up): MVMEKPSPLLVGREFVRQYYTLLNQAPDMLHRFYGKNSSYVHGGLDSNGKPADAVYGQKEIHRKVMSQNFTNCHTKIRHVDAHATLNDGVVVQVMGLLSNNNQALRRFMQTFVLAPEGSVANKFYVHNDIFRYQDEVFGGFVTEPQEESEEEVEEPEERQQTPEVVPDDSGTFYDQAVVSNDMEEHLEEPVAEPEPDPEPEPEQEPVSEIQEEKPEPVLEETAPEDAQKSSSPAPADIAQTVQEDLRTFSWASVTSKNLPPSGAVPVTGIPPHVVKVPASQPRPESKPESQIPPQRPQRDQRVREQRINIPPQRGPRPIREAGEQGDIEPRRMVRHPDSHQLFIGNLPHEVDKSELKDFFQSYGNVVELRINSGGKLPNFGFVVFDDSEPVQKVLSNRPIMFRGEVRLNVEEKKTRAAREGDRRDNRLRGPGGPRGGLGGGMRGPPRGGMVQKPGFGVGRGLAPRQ
Strand	log2 enrichment
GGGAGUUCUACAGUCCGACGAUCAAGUCCUGUGCUACACAUCGUAUGUACCGAAUCGGGAAAAAAAGGGUUUGGGAGGGAAAGUAUUAUGUUACGCCGUUCGGAUCUGCACUUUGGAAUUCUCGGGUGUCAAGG	0.34
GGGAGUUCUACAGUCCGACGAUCUCCUCAAGUCCUGUGCUACACAUCGUAUGUACCGAAUCGGGUGGUGGUGGGAAAGUAUUAUGUUACGCCGUUCGGAUCUGCACUUCCAGCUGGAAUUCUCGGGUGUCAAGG	0.02
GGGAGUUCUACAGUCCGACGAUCGUCCUGUGCUACACAUCGUAUGUACCGAAUCGGGUUUUUUUGGGAAAAAGGGUUUGGGAAAGUAUUAUGUUACGCCGUUCGGAUCUGCACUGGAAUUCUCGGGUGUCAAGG	-0.677
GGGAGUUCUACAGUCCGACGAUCGUCCUGUGCUACACAUCGUAUGUACCGAAUCGGUUUUUUGGUUUUUUGGGGUUUUUUGGAAAGUAUUAUGUUACGCCGUUCGGAUCUGCAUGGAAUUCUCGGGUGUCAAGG	-0.902
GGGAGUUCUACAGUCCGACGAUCAGUCCUGUGCUACACAUCGUAUGUACCGAAUCGGGAAAGGGUUUGGGUUUUUUUGGGAAAGUAUUAUGUUACGCCGUUCGGAUCUGCACUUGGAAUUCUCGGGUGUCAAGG	-0.212
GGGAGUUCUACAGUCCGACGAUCUGGGAGGUGGAUUUUGUUUAUUUUUUUAGAUCAUUUCCAGGGGUGGGAAUUUUUUUUUAAUAUGUGUCAUGAAUAAAGUUGUUUUUGAAAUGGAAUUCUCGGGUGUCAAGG	0.0819
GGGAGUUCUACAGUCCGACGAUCAGUCCUGUGCUACACAUCGUAUGUACCGAAUCGGGGCCCCGGCCCCGGGCCCCGGGGAAAGUAUUAUGUUACGCCGUUCGGAUCUGCACUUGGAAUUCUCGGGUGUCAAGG	-1.01
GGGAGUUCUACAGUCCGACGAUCUGCUGGAGGCAAAAAAUGCCAGCCUGGCGUCGUCCAACAACGACUUGCAGGUGGCCGAGGAGCAGUACCAGAGGCUUAUGGCCAAGGUAGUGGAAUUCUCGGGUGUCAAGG	-2.34
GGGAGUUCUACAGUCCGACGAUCUAAGGCCAGUAAAAUUUUAGUACCUGGAGGUUUGACUCUAAUUUUUGCACUGAUGGUGCCAAAGGGCCCUGAGUCAAAAGGAUAGCCAAGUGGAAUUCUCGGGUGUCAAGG	-2.11
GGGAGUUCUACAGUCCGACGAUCCCUGUGCUACACAUCGUAUGUACCGAAUCGGGAAAAAGGGAAAAAAAGGGAAAAAAAGGGAAAGUAUUAUGUUACGCCGUUCGGAUCUGCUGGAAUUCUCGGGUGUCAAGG	-0.74

Sample 2 — method: RNA Bind-n-Seq; molecule type: RNA; sample: in vitro; tested at: 365 nM; baseline: no-protein control; direction: higher = stronger binding
Target: RNA binding protein fox-1 homolog 2, RRM domain, GST-SBP tag (RBFOX2, Homo sapiens, UniProt O43251-10, residues 100-194)
Notes: natural RNA segment, single round, ends assumed
Construct (chain): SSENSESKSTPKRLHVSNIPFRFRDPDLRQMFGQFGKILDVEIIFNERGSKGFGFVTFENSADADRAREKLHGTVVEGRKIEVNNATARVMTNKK
Strand	RBNS enrichment (R)
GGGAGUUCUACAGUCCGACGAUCCAGUGCCGUUAAUAAACUUUAGAUACAAACCAACAACCACCAUUCUCCAGUAUACUACAGUGGGAAUCACUGAUCUAGUUAACGGCAGCACUCUUGGAUUAAUUCAAUUGUGGAAUUCUCGGGUGCCAA	0.496
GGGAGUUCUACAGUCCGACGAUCUGAGCUUCUAGAGGGAUGGUUUGGCUUACUAAUUUAUCUUCCCUGAAAUAUGUUUGAGUAAAAAAGAGUUGCCUGCCACAAUUUAGUGUUGGGGUUCCAGUGGAGCUGAGUGGAAUUCUCGGGUGCCAA	1.55
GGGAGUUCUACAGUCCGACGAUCGACAUGCAGGCCACAGGGCUUCUAGGCAGGGAAAGGGCACACACCCUAGGUCAGCGUGCAGAGCAGUGAUGCUGGAGGACACACCAUGGGGUGAAGCCAUCCCAAGGCUGUGGAAUUCUCGGGUGCCAA	0.656
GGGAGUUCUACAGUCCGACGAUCUCUUUUACCAGCCCAAAUACGUCAAAACUUUUUAUAUGAAUGUGGAAAUAAAGAAGAGACUAUUUCUAUAACCAUGGUGCUCAGUCGUUUCUAAUGGAAGCUCAGGCUUUUGGAAUUCUCGGGUGCCAA	1.41
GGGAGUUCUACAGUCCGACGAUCGUGCCUGUCCAGCAGGGAGCUUGAAUUUAAGUUCCAUGUAUGAAGUCAUUGGCUCUAUCUGCAUUUUUCUGUCAUUCUCUUCAUUUGUUUUAAGGUGGAAAAUUUUCUUAUGGAAUUCUCGGGUGCCAA	1.12
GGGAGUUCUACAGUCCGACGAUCGGGAUUUUACAGAAGUCUCCUUGAAUUUGCCCUGCCUGGGGCAGUUUUGCAGAGGAACCUGCCAGAGAUUUAUUGGCUGGUCAGUCUCUUGUGAAAUAGUAUCAUGUGAGUGGAAUUCUCGGGUGCCAA	0.368
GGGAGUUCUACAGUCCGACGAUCUAGGUGUCCUUAGGGAGAGAAAACAGGAGCAAGCUCAUGGUCUGGCCUAGUCUCCCUCUCCCACUCCUUCUGAUGACACUAGCAAUGCAUUCCAUCUGACCUGACUUUAUUGGAAUUCUCGGGUGCCAA	0.918
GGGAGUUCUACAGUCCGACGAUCCCUUCUGUUUGGAUUUUGCUCAACAUCUCCAGUUUCUCUGCUCUGAAAAAUGGGGAAAACUGCUAAACAUCCCAGAGAUUUGCAAUCUUCUAGCUCUCCAGGUGAGCAGAUGGAAUUCUCGGGUGCCAA	0.371
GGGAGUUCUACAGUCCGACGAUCCCUUUGGUUGUAUGAUUUUCUUCUUUUUUAAUGACUCCUGGAAGCAGUGCCCCUUCAGAGCUGGCUGGGAGCUUGGCUCAGCCACCUCUUAGGGUGCCUGCCUCUGCCAUUGGAAUUCUCGGGUGCCAA	0.725
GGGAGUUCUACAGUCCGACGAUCGGCUCCUCCAGCCGCCCCCAUGGGAAGAGGCCUGGUACCGCCUCACCCACAGAGGUCUGUGCCAGGUGCGCUUCUGCAGGUGGAGCCAAGCUCUCCCUGAGGCCAGAGGCUGGAAUUCUCGGGUGCCAA	0.236
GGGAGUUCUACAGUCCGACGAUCCUGUGAUUAUAUUAUAUUGAGGCAUUUGUAGUGCAGCUGAAGACUGAAUUUAUGCCUUUUGUAAACAUGAUAGGUAUAAAUGUCUUAUAAACAUUCUGGAGUAUGUAUAGUGGAAUUCUCGGGUGCCAA	0.365
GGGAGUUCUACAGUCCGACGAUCACCACAGCAACCUACUGUAUAUUUUCUCCCUGAAAUCCUGCCCUCUGUCUUUGCACUUAGCUGUUCAAGUAUUGCCUUGGAUUUACAAAAUACAAGGGAUGGGGAAAUCUUGGAAUUCUCGGGUGCCAA	0.531

Sample 3 — method: protein binding microarray; molecule type: double-stranded DNA, one strand shown; sample: in vitro; tested at: not given; baseline: not given; direction: higher = stronger binding
Target: Histone acetyltransferase KAT6A, winged helix 1, GST fusion (KAT6A, Homo sapiens, UniProt Q92794, residues 1-85)
Notes: 8-mer, flanks averaged, mean of 2 arrays, mostly near background
Residues (chain): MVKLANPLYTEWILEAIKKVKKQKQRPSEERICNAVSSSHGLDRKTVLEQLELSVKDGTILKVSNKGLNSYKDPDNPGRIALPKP
Strand	E-score
CAGCATCA	-0.218
CAAAATAC	-0.158
GGAATCAC	-0.121
CCTGACCG	0.144
CCACGGCC	0.302
ACTGTGAC	-0.157
GCCTCAAA	-0.0365
CACGTCCG	0.111
CTTTGAAA	-0.132
ACTATTCA	-0.183
CGGAACGC	0.335
GTTACAGA	-0.123
GTAATCAA	-0.0407
AGCAGTAA	-0.166
AGCGTGTC	0.131
GCAACTAC	-0.0276
TGATTCCA	-0.198
AATTAGAA	-0.135
CAAAATAA	-0.217
ACCCTGCT	-0.134
GCCCCAGC	0.0443
GGTCGTAC	-0.0011
AGTAAGGG	0.04
ACGAGCGG	0.272
TCATTGAA	-0.211

Sample 4 — method: universal PBM; molecule type: double-stranded DNA, one strand shown; sample: in vitro; tested at: not given; direction: higher = stronger binding
Target: Sal-like protein 4, full length isoform B (SALL4, Homo sapiens, UniProt Q9UJQ4-2, residues 1-616)
Notes: 8-mer, flanks averaged, mean of replicates
Strand	E-score
CCAGTGTC	-0.161
TGCCGCAA	0.089
CGACTGCC	-0.231
AGGAATAC	0.152
AGGTCAGG	-0.346
ATAACCTC	0.226
AAATCGGT	-0.00696
AGCTGCAA	-0.0408
CTGCGCCA	-0.224
CACAGGAG	-0.08
CGTTCCAG	-0.0556
CCGCCCCA	-0.173
TCCCCCGA	-0.206
CTCCACCC	-0.248
GGGCATGA	-0.284
AATTCACC	0.102
AATGGTCC	0.0244
GAACGCCC	-0.189
ACCCAATA	0.0838
GGAGAGCA	-0.0877
CCTAGTCA	-0.0457
AATAGCCG	-0.00907
CGACGCAA	-0.306
AATAATTC	0.403
TCGTTTAA	0.116

Some of these lines once more (sample 4):
Strand	E-score
CCAGTGTC	-0.161
GGGCATGA	-0.284
ACCCAATA	0.0838
AATTCACC	0.102
CGACGCAA	-0.306
AGCTGCAA	-0.0408
AATAATTC	0.403
CACAGGAG	-0.08
TGCCGCAA	0.089
AGGAATAC	0.152
